Measurements from different studies.
Compare with care: the assays were run in different laboratories.

Compound	organism	test	system	how to read	selectivity index
CC1(CCCCCCCCCCOCCCOP(=O)(O)CO[C@H](CO)Cn2ccc(N)nc2=O)COC1	human gammaherpesvirus 4	qPCR	Akata	relative to: CC50 over EC50	> 5
CCOC1=CC(=O)c2cc3c(cc2C1=O)CCCC3(C)C	Leishmania infantum	–	promastigotes	relative to: HepG2 CC50 over promastigote EC50	12.4
CCCCCOC(=O)C12CCC(C)C(C)C1C1=CCC3C4(C)CCC(OC5OC(CO)C(OC6OC(C)C(O)C(O)C6O)C(O)C5OC5OC(C)C(O)C(O)C5O)C(C)(C)C4CCC3(C)C1(C)CC2 (centres unmarked)	PRRSV	–	MARC-145, GD-XH	relative to: CC50 over EC50	13
C=C(C)[C@@H]1CC[C@]2(C(=O)n3ccnc3)CC[C@]3(C)[C@H](CC[C@@H]4[C@@]5(C)CCCNC(C)(C)[C@@H]5CC[C@]43C)[C@@H]12	Human papillomavirus 11	viral replication	C-33 A	relative to: CC50 over EC50	3
CC1(CCCCCCCCCCCCOCCCOP(=O)(O)CO[C@H](CO)Cn2ccc(N)nc2=O)COC1	human gammaherpesvirus 4	qPCR	Akata	relative to: CC50 over EC50	> 13
CC1CCC2(C(=O)OCc3ccccc3)CCC3(C)C(=CCC4C5(C)CCC(OC6OC(CO)C(OC7OC(C)C(O)C(O)C7O)C(O)C6OC6OC(C)C(O)C(O)C6O)C(C)(C)C5CCC43C)C2C1C (centres unmarked)	PRRSV	–	MARC-145, GD-XH	relative to: CC50 over EC50	16
C=C(C)[C@@H]1CC[C@]2(C(N)=O)CC[C@]3(C)[C@H](CC[C@@H]4[C@@]5(C)CCCNC(C)(C)[C@@H]5CC[C@]43C)[C@@H]12	Human papillomavirus 11	viral replication	C-33 A	relative to: CC50 over EC50	< 4
CC(C)=CCCC1=CCC2=C(C1)C(=O)c1ccccc1C2=O	Leishmania infantum	–	intracellular amastigotes, ex vivo mouse splenic explants	relative to: HepG2 CC50 over amastigote EC50	2.7

Some of these lines once more:
Compound	organism	test	system	how to read	selectivity index
CC1(CCCCCCCCCCOCCCOP(=O)(O)CO[C@H](CO)Cn2ccc(N)nc2=O)COC1	human gammaherpesvirus 4	qPCR	Akata	relative to: CC50 over EC50	> 5
